Experimental data from different studies.
Parts stem from different laboratories: compare values within a part only.

Study 1
Target: RNA binding protein fox-1 homolog 2, RRM domain, GST-SBP tag (RBFOX2, Homo sapiens, UniProt O43251-10, residues 100-194)
Method: RNA Bind-n-Seq
Molecule type: RNA
Matrix: in vitro
Tested at: 365 nM
Setting: natural RNA segment, single round, ends assumed
Baseline: no-protein control
Reading: higher = stronger binding
All sequences stand within: GGGAGUUCUACAGUCCGACGAUC … UGGAAUUCUCGGGUGCCAA
Target sequence (chain): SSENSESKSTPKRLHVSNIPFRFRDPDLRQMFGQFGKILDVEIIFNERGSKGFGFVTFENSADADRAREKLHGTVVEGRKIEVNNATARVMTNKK
For `GCUAUUAAAUAACAUCGAGUAACAUCUGCAUCAGGCCCUCAGAAUAUACAGUUGAGUUGGGAGUAAACUGAAAAGACAAAUGUGUUGAAGGCUAUGCCAGGGAAUCUGGC`, “RBNS enrichment (R)” read 0.616.
For `UGAUUUUCCUCCCUGGUUUGCAGCUGUUUUCAAAGCCCCCGAUAAUCGCUCUUUUCCACUCCAAGAUGCCCUCAUAAACCAAUGUGGCAAGACUACUGGACUUCUAUCAA`, “RBNS enrichment (R)” read 0.824.
Under “RBNS enrichment (R)”, `GCAGCCGGCCUUGCAGAGCCUCCUCAGCUUGGGGGGCUGGGGACCCAGUCAGCUGAGAGGUCCUCUAGGCUCUACUUAGGCAUAUGUGUACCCAAAAAAAAAAUUUUUUU` is recorded as 0.519.
For `UCUGGAGCUAGUCAGUGUCCUAGACCACCAGGACCUCUACUCAUUCAUGAGUUAGUUAUGCAGCAAGUCCCUAUAUACCUAGAAAUGCUCUUGUCAGAAGUGUCACUGCC`, “RBNS enrichment (R)” read 0.3.
`CGGAUUCCCCUCGCUGGAGAGGCUCCUGUCUGAUAGCGGUAGAUGAAAAAUAAGGUCGUUAUGACUUUGGCAACUUGCUUCAUUUCUUUUUCAUUUGACUUACAACACAC`: “RBNS enrichment (R)” 0.566.
`GUCACUGGUCAGAAUCCUCACUGAGCUCCCAGUCCAGAGAGAAGCCAGACAAUUAAAACAGUAAUGAAAUGAUGUGUGUGGCCUUUGUCUACUCAAGGUCCCUUUCUGCU`: “RBNS enrichment (R)” 0.177.
Under “RBNS enrichment (R)”, `UGUCAAUUUGCAUCAUUUGCAUAUUGAUUUCAAGUCUCCUAAUUUGGAAUGGGUAAAGUACAAAUGUUAAUGCAACAUAGUACAGUUGUAUUUGUCCUUCAUAUUCAGGA` is recorded as 0.411.
`CCACCUCCUGCAGCAGCAGCAGUACAAGGGACUGGCUAGGAUGGAGUCAGGCAGCUCACACUGGACCAGUGUGGACCUUCCUUCCUCCCAUGGCAUGUGCAAGUAGGUCU`: “RBNS enrichment (R)” 7.54.

Study 2
Target: Probable WRKY transcription factor 11, DNA-binding domain (WRKY11, Arabidopsis thaliana, UniProt Q9SV15, residues 228-325)
Method: DNA-protein interaction ELISA
Molecule type: double-stranded DNA, one strand shown
Matrix: in vitro, bacterial lysate
Tested at: not given
Setting: whole dsDNA probe, crude lysate protein
Baseline: highest signal in screen
Reading: higher = stronger binding
Construct (chain): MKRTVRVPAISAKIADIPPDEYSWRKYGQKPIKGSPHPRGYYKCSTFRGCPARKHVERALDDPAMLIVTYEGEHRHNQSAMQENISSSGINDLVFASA
With `AAAAAAGTAGGTGCTGATGCTGGCCGAAAA` the relative absorbance was 16.7 % of maximum.
With `AAAAAAATCGTTGTTATCGTATTTATAAAA` the relative absorbance was 13.8 % of maximum.
For `AAAAAAAAGTGCCAACGTTCAAGAAAAA`, the relative absorbance was 8.93 % of maximum.
`AAAAAACTTGCTCCTCCGTTTTACTCAAAA` gave a relative absorbance of 16.7 % of maximum.
The relative absorbance of `AAAAAAGGCCTTCGCTCGTGTTTACGAAAA` is reported as 10.7 % of maximum.
The relative absorbance of `AAAAAATCCTGTTTGCGTTTGATTTTAAAA` is reported as 12.7 % of maximum.
`AAAAAATTTGCGCTTCATCCTGCCCCAAAA` gave a relative absorbance of 18.4 % of maximum.
For `AAAAAATTTCTCCTTCTTTGTTCTTCAAAA`, the relative absorbance was 16.1 % of maximum.
With `AAAAAAAAATCGAATTTGGACTTCCGAAAA` the relative absorbance was 21.6 % of maximum.
The relative absorbance of `AAAAAATTCTTAGTTAGATTCACCTCAAAA` is reported as 13.8 % of maximum.
`AAAAAACTGCTAATCGGTGACCCGATAAAA` gave a relative absorbance of 21.6 % of maximum.
`AAAAAATGCCCATGTGCACCCGTACGAAAA` gave a relative absorbance of 14.4 % of maximum.
`AAAAAATAGCGACTTCGACTCTCAGTAAAA` has a relative absorbance of 20.5 % of maximum.
`AAAAAAATTCGCAACCCTCACGTTCGAAAA` has a relative absorbance of 18.2 % of maximum.
With `AAAAAATTGCATTCCACCCTTAGGTTAAAA` the relative absorbance was 12.1 % of maximum.
`AAAAAAAGTTCGCGGATTTCGGCCATAAAA` has a relative absorbance of 16.7 % of maximum.
The relative absorbance of `AAAAAACTGTGTCCCCGTCCCATCTCAAAA` is reported as 12.7 % of maximum.
The relative absorbance of `AAAAAATTCGTATCTGTACCCTATGCAAAA` is reported as 17 % of maximum.
For `AAAAAATCGGGCCCCGTTAGCACTCTAAAA`, the relative absorbance was 16.7 % of maximum.

Study 3
Target: Prothrombin, mature alpha-thrombin (F2, Homo sapiens, UniProt P00734)
Method: aptamer microarray, sandwich
Molecule type: DNA with 2'F-ANA
Matrix: in vitro
Tested at: 200 nM
Setting: whole 15-mer aptamer, many near background
Added: Cy3 exosite-II aptamer, 400 nM
Reading: higher = stronger binding
Sequence: GGTTGGTGTGGTTGG
`2'F-ANA at 1 7 8 10 11 14 15`: “mean fluorescence intensity” 47.1 a.u.
`2'F-ANA at 1 2 3 4 5 6 9 10 11 12` — result for “mean fluorescence intensity”: 55.7 a.u.
Under “mean fluorescence intensity”, `2'F-ANA at 2 3 5 8 9 10 11 12 15` is recorded as 69 a.u.
Under “mean fluorescence intensity”, `2'F-ANA at 3 4 5 6 7 12 13 14 15` is recorded as 51.4 a.u.
Under “mean fluorescence intensity”, `2'F-ANA at 3 6 7 9 10 11` is recorded as 452 a.u.
For `2'F-ANA at 1 2 5 7 8 9 10 11 12 14 15`, “mean fluorescence intensity” read 54.6 a.u.
`2'F-ANA at 2 3 4 8 9 12 13 14`: “mean fluorescence intensity” 296 a.u.
`2'F-ANA at 3 5 9 11 13 15` — result for “mean fluorescence intensity”: 81.1 a.u.
`2'F-ANA at 3 4 5 6 7 8 11 13 14 15` — result for “mean fluorescence intensity”: 53.5 a.u.
`2'F-ANA at 2 3 5 6 8 12 13 14`: “mean fluorescence intensity” 55.8 a.u.
`2'F-ANA at 2 6 7 8 9 10 12 13 14 15`: “mean fluorescence intensity” 90.4 a.u.
For `2'F-ANA at 1 11 12 14`, “mean fluorescence intensity” read 77.8 a.u.
For `2'F-ANA at 2 3 5 6 7 8 10 14 15`, “mean fluorescence intensity” read 50.6 a.u.
For `2'F-ANA at 4 6 9 13 14 15`, “mean fluorescence intensity” read 65.1 a.u.
`2'F-ANA at 2 4 8 10 11 15`: “mean fluorescence intensity” 103 a.u.
`2'F-ANA at 1 3 4 7 9 11 12`: “mean fluorescence intensity” 320 a.u.
For `2'F-ANA at 2 7 9 10 11 15`, “mean fluorescence intensity” read 116 a.u.
`2'F-ANA at 2 3 4 5 7 11 12 13`: “mean fluorescence intensity” 111 a.u.
For `2'F-ANA at 1 5 6 8 10`, “mean fluorescence intensity” read 48.5 a.u.
`2'F-ANA at 1 5 6 7 8 9 10 11 12 14 15` — result for “mean fluorescence intensity”: 68 a.u.
For `2'F-ANA at 4 8 9 11 12`, “mean fluorescence intensity” read 436 a.u.

Study 4
Target: Ras GTPase-activating protein-binding protein 1, RRM domain (G3BP1, Homo sapiens, UniProt Q13283)
Sequence of UniProt Q13283 (whole entry, looked up): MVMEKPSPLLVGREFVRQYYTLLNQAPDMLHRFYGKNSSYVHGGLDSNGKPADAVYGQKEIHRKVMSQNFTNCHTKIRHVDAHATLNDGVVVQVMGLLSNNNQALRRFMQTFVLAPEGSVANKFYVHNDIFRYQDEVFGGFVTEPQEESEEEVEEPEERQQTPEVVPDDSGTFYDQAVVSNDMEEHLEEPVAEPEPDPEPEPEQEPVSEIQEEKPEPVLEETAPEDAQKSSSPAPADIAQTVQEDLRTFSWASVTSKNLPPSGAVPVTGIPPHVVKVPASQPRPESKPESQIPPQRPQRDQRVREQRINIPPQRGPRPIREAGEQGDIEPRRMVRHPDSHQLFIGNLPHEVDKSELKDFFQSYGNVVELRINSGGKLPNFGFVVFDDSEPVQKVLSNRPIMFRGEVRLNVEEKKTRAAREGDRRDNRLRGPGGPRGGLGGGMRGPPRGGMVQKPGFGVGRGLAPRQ
Method: RNA Bind-n-Seq
Molecule type: RNA
Matrix: in vitro
Tested at: 1 µM
Setting: whole 134-nt RNA, ends assumed
Added: 150 mM KCl
Baseline: input library
Reading: higher = stronger binding
All sequences stand within: GGGAGUUCUACAGUCCGACGAUC … UGGAAUUCUCGGGUGUCAAGG
With `UCUGAGGUCACCAAGCCUCCUCCUUGCUUGGAGAACUCCUCGCCUCCCUCCAGGAUUCCGGAGCCUGAAUCCCCAGCGAAGCCAAACGUC` the log2 enrichment was -0.364.
`AAGUCCUGUGCUACACAUCGUAUGUACCGAAUCGGGUUUUGGGUUUUGGGGUUUUGGAAAGUAUUAUGUUACGCCGUUCGGAUCUGCACU` gave a log2 enrichment of -0.175.
For `CAAGUCCUGUGCUACACAUCGUAUGUACCGAAUCGGGGCCCGGGGCCCGGCCCGGAAAGUAUUAUGUUACGCCGUUCGGAUCUGCACUUC`, the log2 enrichment was -1.02.
`UGUGCUACACAUCGUAUGUACCGAAUCGGGGUUUUUGGGGAAAAAAAGGGGUUUUUUUGGGGAAAGUAUUAUGUUACGCCGUUCGGAUCU` has a log2 enrichment of 1.26.
With `CCUGUGCUACACAUCGUAUGUACCGAAUCGGGGUUUGGGGAAAAAGGGGAAAAAAAGGGGAAAGUAUUAUGUUACGCCGUUCGGAUCUGC` the log2 enrichment was 0.81.
The log2 enrichment of `UAGUAACAGGGGUGAAGAUGCCUUUUGUGAUCCUGAAGAUGAAUGGGAACCCGACAUUACAGAUGCACCAGUUUCUUCACUUUCUAGAAG` is reported as -0.228.
`GUCCUGUGCUACACAUCGUAUGUACCGAAUCGGGAAAAAGGGAAAGGGAAAAAAAGGGAAAGUAUUAUGUUACGCCGUUCGGAUCUGCAC` gave a log2 enrichment of 0.106.
For `CUGUGCUACACAUCGUAUGUACCGAAUCGGAAAAAAAGGGGAAAAAAAGGGAAAAAAAGGGAAAGUAUUAUGUUACGCCGUUCGGAUCUG`, the log2 enrichment was 0.143.
With `AAGUCCUGUGCUACACAUCGUAUGUACCGAAUCGGAAAAAAAGGUGGAAAAAAAGGAAAGUAUUAUGUUACGCCGUUCGGAUCUGCACUU` the log2 enrichment was -0.00694.
